Published values pooled from the literature.
Protocols differ between the studies behind these lines. “And” joins repeats or separate records; there may be more than shown. Numbers after ± are the reported error. Converted amounts (≈) assume the structure as drawn.

The half-life of `CSc1cc(C)nc(SC)c1NC(=O)CN1CCN(CCSc2nc3ccccc3[nH]2)CC1.Cl` is reported as 0.132 h (CD-1 mouse, female, olfactory bulb; intranasal, 32.4 µg/10 µL, 7 days repeated).
The tissue/plasma ratio of `CC(C)[C@H](C(=O)Nc1ccc(C(=O)NO)cc1)c1ccccc1` is reported as 53.4 (human, tumour peripheral capsule over plasma; 40 mg; relative to: pre-anaesthesia plasma).
`des-acyl ghrelin (human)` has a brain/serum ratio of 8.53 µL/g (mouse, wild type, thalamus; intravenous, 10 min).
For `CC(O)CCc1ccc(O)cc1` (centres unmarked), the AUC(0-t) was 19.4 ± 3.34 nmol·min/g (female C57BL/6J mice, brain; oral, 200 mg/kg, 0 to 12 h, low-fat diet).
For `CC(C)(c1ccc(O)cc1)c1ccc(O)cc1`, the half-life was 2.53 h (GC-MS; exposure tank water with snails, reconstituted water; 250 ng/L nominal, 27 °C).
The concentration of `CNc1nc(Nc2ccc(-n3cnc(C)n3)c(OC)c2)nc2c1CC[C@H]2c1ccc(F)cc1` is reported as 1150 ng/mL (human, plasma; oral, 200 mg, 24 h, multiple doses, once daily).
`Cc1cccc(C)c1OCC(=O)N[C@@H](Cc1ccccc1)[C@@H](O)C[C@H](Cc1ccccc1)NC(=O)[C@H](C(C)C)N1CCCNC1=O` gave a fraction unbound of 0.0097 (median; HIV patients without HCV, plasma; oral, lopinavir/ritonavir twice daily).
For `CC1=C2C[C@H]3[C@@H](CC[C@@H]4C[C@H](NS(C)(=O)=O)CC[C@@]43C)[C@@H]2CC[C@@]2(C1)O[C@@H]1C[C@H](C)CN[C@H]1[C@H]2C`, the Tmax was 2.13 h (patients, plasma; oral, 20 mg daily, day 22, cycle 1).
`Cn1c(-c2ccc(C(N)=O)cc2F)nnc1C(C)(C)Oc1c(F)cc(Cl)cc1F`: “Cmax range over subjects” 138 to 294 ng/mL (young Japanese adults, plasma; oral, 20 mg single dose, day 1, high-dose multiple-dose study).
The remaining compound of `CC(C)OC(=O)[C@H](CCC(=O)C=[N+]=[N-])NC(=O)O[C@H](C)OC(=O)C(C)(C)C` is reported as 0% (mouse plasma; 10 µM, 60 min, 37 °C).
`Cc1cc(Nc2ncc(Cl)c(Nc3ccccc3S(=O)(=O)C(C)C)n2)c(OC(C)C)cc1C1CCNCC1` gave a Css,max of 25 nM and 42 nM and 21 nM (measured: unbound drug; human, plasma; oral, 750 mg/day).
For `Cl.Cl.NCCCn1c2c(c3ccc(N)cc3c1=O)C(=O)c1ccccc1-2`, the tissue concentration was 0.29 ± 0.006 µg/g (Sprague-Dawley rat, female, mammary gland; oral, 40 mg/kg/day for 3 days, 3 h after last dose, pooled samples).
The half-life of `Cc1c2oc3c(C)ccc(C(=O)N[C@@H]4C(=O)N[C@H](C(C)C)C(=O)N5CCC[C@H]5C(=O)N(C)CC(=O)N(C)[C@@H](C(C)C)C(=O)O[C@@H]4C)c3nc-2c(C(=O)N[C@@H]2C(=O)N[C@H](C(C)C)C(=O)N3CCC[C@H]3C(=O)N(C)CC(=O)N(C)[C@@H](C(C)C)C(=O)O[C@@H]2C)c(N)c1=O` is reported as 2.21 h (mouse, FVB wild-type, liver; intravenous, 0.5 mg/kg).
The t1/2 of `CC(C)(Sc1ccncc1-c1ccc(C#N)c2ccccc12)C(=O)O` is reported as 7.98 h (human, male, Japanese, plasma; oral, 5 mg, day 6, fed, single dose).
The blood glucose of `NCCCC[C@@H]1NC(=O)[C@@H](Cc2c[nH]c3ccccc23)NC(=O)[C@H](c2ccccc2)NC(=O)[C@@H]2C[C@@H](OC(=O)NCCN)CN2C(=O)[C@H](Cc2ccccc2)NC(=O)[C@H](Cc2ccc(OCc3ccccc3)cc2)NC1=O` is reported as 116 mg/dL (healthy human volunteers; subcutaneous, 300 µg, 2 h, post-prandial).
`CC(C)NC[C@@H](C(=O)N1CCN(c2ncnc3c2[C@H](C)C[C@H]3O)CC1)c1ccc(Cl)cc1` — result for “apparent volume of distribution”: 16000 L (human, Mild hepatic function, plasma; oral, 100 mg single dose, NCI classification, geometric mean).
The Tmax range of `Cc1nc2cccc(OCC(C)(C)C(=O)NC(C)C)c2c(N)c1C(=O)O` is reported as 1.5 to 3 h (Sprague-Dawley rat (both sexes), plasma; dietary, 30 to 100 mg/kg/day, day 7).
`CC(C)(Sc1ccncc1-c1ccc(C#N)c2ccccc12)C(=O)O` gave a renal clearance of 12.9 mL/min (male, urine; oral, 15 mg, 72 h, mild renal impairment).
For `Oc1ccc(/C=C/c2cc(O)cc(O)c2)cc1`, the effective permeability was 5.1867 ± 0.000105 ×10⁻⁶ cm/s (in situ intestinal perfusion; Sprague-Dawley rat, colon; 25 µg/mL, 120 min, pH 7.4).
With `C#Cc1cccc(Nc2ncnc3cc(OCCOC)c(OCCOC)cc23)c1` the Cmin was 1000 ng/mL (human, plasma; oral, 150 mg once daily, steady state monotherapy).
`CC(C)c1nc(CN(C)C(=O)N[C@H](C(=O)N[C@@H](Cc2ccccc2)C[C@H](O)[C@H](Cc2ccccc2)NC(=O)OCc2cncs2)C(C)C)cs1`: “AUC(0-t) geometric mean” 82500 ng·h/mL (healthy men, plasma; 600 mg single dose, together with: amenamevir 400 mg).
`O=C(NC[C@H](O)CO)c1ccncc1Nc1ccc(I)cc1F`: “apparent volume of distribution” 265 L (human; oral, 45 mg, single dose alone).
`O=C1N=C(N2CCOCC2)CN1c1ccc(Cl)cc1` gave a Tmax of 1.6 h (beagle dog, female; oral, 30 mg/kg, tablets, fed).
`CC(C)C[C@H](NC(=O)[C@H](CCCNC(=N)N)NC(=S)Nc1ccc(C[C@H]2CN(CC(=O)O)CCN(CC(=O)O)CCN2CC(=O)O)cc1)C(=O)N[C@@H](CC(N)=O)C(=O)N[C@H](C(=O)NCC(=O)NCC(=O)N[C@H](C(=O)N[C@@H](Cc1ccc(O)cc1)C(=O)N[C@@H](Cc1ccccc1)C(=O)N[C@@H](CC(C)C)C(=O)N[C@H](C(=O)N[C@H](C(=O)N[C@@H](CCCNC(=N)N)C(=O)N[C@@H](CCC(N)=O)C(=O)O)[C@@H](C)O)[C@@H](C)O)[C@@H](C)O)C(C)C` [fluorine-18 labelled] — result for “intact parent radiotracer”: 97.7 ± 2.51% (radio-HPLC; mouse (HepG2 tumour-bearing), HepG2 tumour; intravenous, 5.55 MBq, 1 h).
`CCCC[C@H](NC(C)=O)C(=O)N[C@H]1CCC(=O)NC[C@@H](C(=O)N[C@@H](Cc2c[nH]c3ccccc23)C(N)=O)NC(=O)[C@H](CCCNC(=N)N)NC(=O)[C@@H](Cc2ccccc2)NC(=O)[C@H](Cc2c[nH]cn2)NC1=O`: “CL/F, geometric mean” 318 mL/min (healthy volunteers, both sexes, plasma; subcutaneous, 3.0 mg single dose).
`CNC(=O)c1ccc(-c2cnc3ncc(Cc4ccc5ncccc5c4)n3n2)cc1F`: “half-life (geometric mean)” 6.08 h (human, severe hepatic impairment (Child-Pugh C), plasma; oral, 200 mg single dose).
Under “mean serum concentration”, `C[C@]12CC[C@@H]3c4ccc(O)cc4CC[C@H]3[C@@H]1C[C@@H](O)[C@@H]2O` is recorded as 0.0843 ng/mL (GC-MS; breast cancer women on NSAI, serum; vaginal, 0.03 mg, 3 h, day 0).
`O=C(Cc1cccc(OC(F)(F)F)c1)Nc1ccc(CCCCc2nnc(NC(=O)Cc3ccccn3)s2)nn1` has a Cmin of 186 ng/mL (human patients, plasma; oral, 400 mg three times daily fasted, cycle 1 day 15 steady state).
With `COc1cccc(CN)c1O` the brain concentration was 191000 nM (mouse C57BL/6N male, brain; oral drinking water, 7 g/L/day, 1 week).
With `O=C(CCc1ccccc1)c1ccccc1OCC(O)CN1CCC(c2ccccc2)CC1` (centres unmarked) the scaled CLint was 19.4 mL/min/kg (metabolic stability; human, liver microsomes; 20 µM, pH 7.4).
Under ALT, `O=C1CN(/N=C/c2ccc(-c3ccc([N+](=O)[O-])cc3)o2)C(O)=N1` is recorded as “decreased” (Sprague-Dawley rat, male, blood; oral, 100 mg/kg, 6 h).
For `O=C(c1nc2n(n1)[C@H](c1ccccc1)C[C@@H]2F)C1CC1`, the AUC(0-inf) was 1060 ng·h/mL (human, plasma; oral, 5 mg, single dose, fasted, healthy volunteers).
`CCOc1ccc(Cc2cc([C@@H]3S[C@H](CO)[C@@H](O)[C@H](O)[C@H]3O)c(OC)cc2C)cc1` gave an AUC(0-inf) of 8510 ng·h/mL (human, plasma; oral, 25 mg, single dose, fasted, healthy volunteers).
With `[2H]C([2H])([2H])Oc1cc2c(cc1OC([2H])([2H])[2H])C1CC(=O)C(CC(C)C)CN1CC2` (centres unmarked) the dose-normalized Cmax was 0.9 ng/mL (measured: deuterated β-HTBZ; healthy human volunteers, plasma; oral, 6 mg single dose, standard meal).
With `Nc1ccc(S(=O)(=O)Nc2ccnn2-c2ccccc2)cc1` the inhibition was 30% (rosiglitazone metabolism, inhibitor; human liver microsomes; 2.5 µM, together with: rosiglitazone 10 µM).
The CL/F of `O=C(/C=C/c1ccc(O)c(O)c1)O[C@H](Cc1ccc(O)c(O)c1)C(=O)O` is reported as 2670 ± 1190 mL/min/kg (UPLC-MS/MS; Wistar rat, microcirculation dysfunction model, plasma; oral, 100 mg/kg Salvia miltiorrhiza stem-leaf extract FT).
For `Clc1ccc(CNc2ncnc3ccccc23)cc1`, the pKa1 was 6.02 ± 0.01 (UV-metric titration; water; 25.0 °C).
`CCOc1ccc(NC(=S)N(CCO)Cc2cc3cc(C)cc(C)c3[nH]c2=O)cc1` gave a half-life of 1.91 h (C57BL/6J mouse, plasma; intravenous, 3 mg/kg, together with: ABT 50 mg/kg oral pretreatment 2 h before).
The remaining compound of `O=C(O)C(F)(F)c1ccccc1Nc1c(Cl)cc(F)cc1Cl` is reported as 95 ± 5.1% (human liver microsomes; 30 min, together with: NADPH).
For `CC1(C)C(=CC=C2CCCC(C=CC3=[N+](CCCCS(=O)(=O)[O-])c4ccccc4C3(C)C)=C2Cl)N(CCCCCC(=O)O)c2ccccc21`, “tumour fluorescence per volume” read about 8 fold (NIR fluorescence imaging; nude mouse, MCF7 xenograft; 17 nmol/mouse, 2 d; relative to: Cy7).
`CCCOc1ccc([C@H]2CNC(=O)N2c2ccc3[nH]cnc3c2)cc1` gave a Cmax of 199 ng/mL (human, plasma; oral, 50 mg, single dose, fasted).
`C[C@](N)(Cc1ccc(O)c(O)c1)C(=O)O` has a solubility of 282 µg/mL (≈ 1330 µM) (static gravimetric method; supercritical CO2, 826.1 kg/m3; 5 h, 323 K, pressure 24 MPa).
With `CC[C@H](C)[C@H](NC(=O)[C@H](CCCCN)NC(=O)[C@@H]1CCCN1C(C)=O)C(=O)N[C@@H](CCC(=O)O)C(=O)N[C@H](C(=O)N[C@@H](CCCCN)C(=O)N[C@H](C(=O)N[C@@H](CCC(=O)O)C(=O)N1CCC[C@H]1C(N)=O)[C@@H](C)CC)[C@@H](C)CC` the viscosity was 3570 ± 157 Pa·s (rotational rheometry; 1% w/v aqueous solution; shear rate range 1-1000 s^-1).
The oral bioavailability of `CC(C)(C)n1nc(Cc2cccc(Cl)c2)c2c(N)ncnc21` is reported as 25 to 30% (Swiss Albino mouse, male, plasma; oral, 10 mg/kg; relative to: intravenous 3 mg/kg).
With `acyl ghrelin (human)` the brain/serum ratio was 4.17 µL/g (mouse, Ghsr knockout, hippocampus; intravenous, 10 min).
`C[C@@H](O)[C@H]1C(=O)N2C(C(=O)O)=C(S[C@@H]3CN[C@H](C(=O)N(C)C)C3)[C@H](C)[C@H]12` — result for “time above MIC”: 40% (microdialysis; pig, Danish Landrace, subcutaneous adipose tissue; intravenous, 1000 mg over 10 min, 450 min dosing interval, together with: 2.0 µg/mL MIC; relative to: dosing interval).
`CC(C)=CCC[C@](C)(O[C@@H]1O[C@H](CO)[C@@H](O)[C@H](O)[C@H]1O)[C@H]1CC[C@]2(C)[C@@H]1[C@H](O)C[C@@H]1[C@@]3(C)CC[C@H](O)C(C)(C)[C@@H]3[C@@H](O[C@@H]3O[C@H](CO)[C@@H](O)[C@H](O)[C@H]3O[C@@H]3O[C@@H](C)[C@H](O)[C@@H](O)[C@H]3O)C[C@]12C` gave a CL/F of 360 ± 90 mL/min/kg (Sprague Dawley rat, male, plasma; oral, 45 mg/kg, in white ginseng extract).

Some of these lines once more:
`Cc1cccc(C)c1OCC(=O)N[C@@H](Cc1ccccc1)[C@@H](O)C[C@H](Cc1ccccc1)NC(=O)[C@H](C(C)C)N1CCCNC1=O` gave a fraction unbound of 0.0097 (median; HIV patients without HCV, plasma; oral, lopinavir/ritonavir twice daily).
The remaining compound of `O=C(O)C(F)(F)c1ccccc1Nc1c(Cl)cc(F)cc1Cl` is reported as 95 ± 5.1% (human liver microsomes; 30 min, together with: NADPH).
`CCCOc1ccc([C@H]2CNC(=O)N2c2ccc3[nH]cnc3c2)cc1` gave a Cmax of 199 ng/mL (human, plasma; oral, 50 mg, single dose, fasted).
`CCCC[C@H](NC(C)=O)C(=O)N[C@H]1CCC(=O)NC[C@@H](C(=O)N[C@@H](Cc2c[nH]c3ccccc23)C(N)=O)NC(=O)[C@H](CCCNC(=N)N)NC(=O)[C@@H](Cc2ccccc2)NC(=O)[C@H](Cc2c[nH]cn2)NC1=O`: “CL/F, geometric mean” 318 mL/min (healthy volunteers, both sexes, plasma; subcutaneous, 3.0 mg single dose).
`CCOc1ccc(NC(=S)N(CCO)Cc2cc3cc(C)cc(C)c3[nH]c2=O)cc1` gave a half-life of 1.91 h (C57BL/6J mouse, plasma; intravenous, 3 mg/kg, together with: ABT 50 mg/kg oral pretreatment 2 h before).
`CC(C)(Sc1ccncc1-c1ccc(C#N)c2ccccc12)C(=O)O` gave a renal clearance of 12.9 mL/min (male, urine; oral, 15 mg, 72 h, mild renal impairment).
